Experimental data of several laboratories.
Parts stem from different laboratories: compare values within a part only.

Series 1
Cell line: A-375
Tested at: 100 µM
Time: 36 h
For CCOc1ccc(Cc2nccc3cc(OCC)c(OCC)cc23)cc1OCC, the viability was 43.4%.
For c1ccc2[nH]c(-c3cscn3)nc2c1, the viability was 91.8%.
CN[C@@H]1[C@H](O[C@H]2[C@H](O[C@H]3[C@H](O)[C@@H](O)[C@H](NC(=N)N)[C@@H](O)[C@@H]3NC(=N)N)O[C@@H](C)[C@]2(O)CO)O[C@@H](CO)[C@H](O)[C@H]1O gave a viability of 111%.

Series 2
Host: human
Sample: microsomes or S9
Tested at: 2 µM
Time: 0.5 h
For COc1ccccc1N1CCN(/N=C\C(Cl)=C\c2ccccc2)CC1, the remaining compound was 85.8%.
For COc1ccc(C(=O)N2CCn3c(nnc3[C@@H]3C[C@@H](O)CN3C(=O)C(C)C)C2)c(C)c1, the remaining compound was > 100%.
With Cc1ccc(Cn2cccc(NC(=O)NC3CCOC3C)c2=O)cc1 (stereo not drawn) the remaining compound was 52.7%.

Further values, each from its own experiment
CC(C)n1cnc(-c2ccc(F)cc2)c1-c1ncc(C(=O)Nc2ccc(N3CCN(C)CC3)cc2)[nH]1 — result for “grade 5 soft tissue infection”: 0% (human, idiopathic pulmonary fibrosis; 60 mg once daily, trial, treatment-emergent).
Under toxicity, CN(C)CC#Cc1ccc(OCCCc2sc(N3CCc4cccc(C(=O)Nc5nc6ccccc6s5)c4C3)nc2C(=O)O)c(F)c1 is recorded as “not toxic” (normal human organoids; 0.01 to 10 µM, 4 days).
With O=C(c1cc(C2CC2)on1)N(C1CCCCC1)C1CCCCC1 the nuclei count was 0.332 z-score (mouse MPNST tumor cells; high-content nuclear imaging, item: cell number; 10 µM, 12 h, mean of 2 replicates; reference: plate mean, higher = more cells).

For quick reference, copied from above (further values, each from its own experiment):
Under toxicity, CN(C)CC#Cc1ccc(OCCCc2sc(N3CCc4cccc(C(=O)Nc5nc6ccccc6s5)c4C3)nc2C(=O)O)c(F)c1 is recorded as “not toxic” (normal human organoids; 0.01 to 10 µM, 4 days).
